Measured values collected from several papers.
A part holds a random share of what one study measured. Substitutions count along the parent as printed.

Series 1
Target: CCNE2, cyclin fold, Cln2 fusion (human)
Method: yeast growth competition, sequencing
Medium: yeast
Setting: weak parent motif
Reference: not given
Direction: higher = stronger binding
Starting sequence: RB1 docking peptide (human); PKPLKKLRFDIEG; partner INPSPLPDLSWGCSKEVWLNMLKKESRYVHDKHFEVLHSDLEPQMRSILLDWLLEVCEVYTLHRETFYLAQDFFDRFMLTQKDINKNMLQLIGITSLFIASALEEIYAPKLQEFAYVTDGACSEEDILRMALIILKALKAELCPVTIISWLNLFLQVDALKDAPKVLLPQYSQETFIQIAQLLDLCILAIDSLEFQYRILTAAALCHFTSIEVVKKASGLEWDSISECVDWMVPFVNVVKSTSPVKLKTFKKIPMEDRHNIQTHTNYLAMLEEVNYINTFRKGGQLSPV
Change	normalised enrichment score
PKPLKKLRFSIEG [D10S]	-0.168
SKPLKKLRFDIEG [P1S]	0.287
PKPLKHLRFDIEG [K6H]	0.741
PKPLKKLRRDIEG [F9R]	0.386
PVPLKKLRFDIEG [K2V]	0.73
PKPLKKLKFDIEG [R8K]	0.736
PQPLKKLRFDIEG [K2Q]	0.322

Series 2
Target: Ras GTPase-activating protein-binding protein 1, RRM domain (G3BP1, Homo sapiens, UniProt Q13283)
UniProt Q13283, sequence (whole entry, looked up): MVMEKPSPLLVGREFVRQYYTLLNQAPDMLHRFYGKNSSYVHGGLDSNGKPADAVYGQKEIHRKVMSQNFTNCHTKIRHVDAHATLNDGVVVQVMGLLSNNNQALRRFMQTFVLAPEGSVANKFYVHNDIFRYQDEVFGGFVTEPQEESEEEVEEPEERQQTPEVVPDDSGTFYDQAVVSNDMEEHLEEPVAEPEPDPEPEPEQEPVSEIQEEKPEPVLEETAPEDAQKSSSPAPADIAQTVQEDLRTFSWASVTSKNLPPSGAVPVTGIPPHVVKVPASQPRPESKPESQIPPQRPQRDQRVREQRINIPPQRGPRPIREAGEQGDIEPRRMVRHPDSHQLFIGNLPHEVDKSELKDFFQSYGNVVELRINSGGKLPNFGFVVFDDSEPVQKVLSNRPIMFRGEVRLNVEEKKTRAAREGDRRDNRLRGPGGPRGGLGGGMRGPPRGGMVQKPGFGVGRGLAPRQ
Method: RNA Bind-n-Seq
Molecule type: RNA
Medium: in vitro
Concentration: 1 µM
Setting: whole 134-nt RNA, ends assumed
Added: 150 mM KCl
Reference: input library
Direction: higher = stronger binding
Sequence	log2 enrichment
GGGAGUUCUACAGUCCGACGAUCUUCCCAAGAUGGCGGCGGACGUGUCCGUUACUCACCGGCCCCCGCUGAGCCCUAAGUCUGGGGCCGAAGUCGAAGCCGGCGAUGCCGCGGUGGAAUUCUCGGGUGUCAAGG	-0.832
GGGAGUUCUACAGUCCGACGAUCCUGUGCUACACAUCGUAUGUACCGAAUCGGGGUUUUUUUGGGGAAAAAGGGGUUUUUGGGGAAAGUAUUAUGUUACGCCGUUCGGAUCUGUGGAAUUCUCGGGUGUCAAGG	0.549
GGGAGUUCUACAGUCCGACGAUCCUCAAGUCCUGUGCUACACAUCGUAUGUACCGAAUCGGAAGGGAAGGGAAGGGAAAGUAUUAUGUUACGCCGUUCGGAUCUGCACUUCCAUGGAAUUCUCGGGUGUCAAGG	0.208
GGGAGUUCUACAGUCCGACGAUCAAGUCCUGUGCUACACAUCGUAUGUACCGAAUCGGGGAGGGGAAAAAGGGGUGGGGAAAGUAUUAUGUUACGCCGUUCGGAUCUGCACUUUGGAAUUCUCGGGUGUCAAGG	0.985
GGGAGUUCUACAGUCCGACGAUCCAAGUCCUGUGCUACACAUCGUAUGUACCGAAUCGGUUUUUUUGGUGGUUUUUGGAAAGUAUUAUGUUACGCCGUUCGGAUCUGCACUUCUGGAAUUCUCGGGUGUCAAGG	-0.389

Series 3
Target: Max-binding protein MNT, bHLH-zipper, MAX partner unstated (MNT, Homo sapiens, UniProt Q99583, residues 220-300)
Method: protein-binding microarray
Molecule type: double-stranded DNA, one strand shown
Medium: in vitro
Concentration: not given
Setting: k-mer, scored over probes, only values ≥0.25
Direction: higher = stronger binding
Construct (chain): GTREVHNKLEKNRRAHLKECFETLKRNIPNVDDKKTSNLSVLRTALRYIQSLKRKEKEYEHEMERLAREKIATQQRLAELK
Sequence	E-score
CCGCATGC	0.431
GGCGTGTA	0.332
CAGCGTGG	0.436
CGTGCTGC	0.375
AACGTGGA	0.418
CGTGTAAG	0.338
CGTCGTGC	0.292
ACGTGTGG	0.431

Mixed results
Substance	target	assay	system	conditions	scale	endpoint	result
PhoQ, residues 284 288 289 292 302 303 AGHLVA	PhoP, residues 12 14 15 18 19 NHFRA (Escherichia coli, UniProt P23836)	Sort-seq, refers to: YFP reporter	E. coli	PhoQ-PhoP variant library, added: 10 µM Mg2+	reference: high Mg2+ state, higher = stronger signaling	fold induction	0.84

Repeated from above (series 3):
Sequence	E-score
AACGTGGA	0.418
